Results pooled from the literature.
Each line is one published result; not all experiments were run side by side. Values joined by “and” are separate records of one study, mostly repeats; a detail may differ. Numbers after ± are the reported error.
CASP8: Caspase-8 (CASP8, Homo sapiens, UniProt Q14790)
MAPT: Microtubule-associated protein tau (MAPT, Homo sapiens, UniProt P10636)
CASP10: Caspase-10 (CASP10, Homo sapiens, UniProt Q92851)
HSD3B1: 3 beta-hydroxysteroid dehydrogenase/Delta 5-->4-isomerase type 1 (HSD3B1, Homo sapiens, UniProt P14060)

Cc1cc(C)cc(COc2cc3c(cc2OCc2cc(C)cc(C)c2)C2CC(O)(Cc4cn(CCOCCOCCNC(=O)CCCCC5SCC6NC(=O)NC65)nn4)CC(C)N2CC3)c1 (stereo not drawn) gave an SILAC ratio of 2.17 (ATP synthase peripheral stalk subunit OSCP, mitochondrial (Homo sapiens, UniProt P48047); biotinylated probe pull-down, refers to: ATP5PO; 10 µM probe; baseline: heavy over light).
The kinact/KI of CC(=O)N[C@@H](CC(C)C)C(=O)N[C@@H](CCC(=O)O)C(=O)N[C@@H](COCc1ccccc1)C(=O)N[C@@H](CC(=O)O)C(=O)COC(=O)c1c(C)cccc1C is reported as 1.3e+06 M⁻¹ s⁻¹ (CASP8; enzyme activity, inhibitor).
For CC[C@H](C)[C@H](NC(=O)[C@H](CCC(N)=O)NC(=O)[C@@H](NC(=O)[C@@H]1CCCN1[C@@H]1CN(C(=O)[C@H](CCCCN)NC(=O)[C@H](CC(N)=O)NC(=O)[C@@H](NC(=O)[C@@H](NC(=O)[C@H](CCC(N)=O)NC(=O)[C@@H](N)C(C)C)[C@@H](C)CC)[C@@H](C)CC)CC[C@H]1NS(=O)(=O)c1ccc(C)cc1)C(C)C)C(=O)N[C@H](C(=O)N[C@@H](Cc1ccc(O)cc1)C(=O)N[C@@H](CCCCN)C(N)=O)C(C)C, the ThT fluorescence was 71 ± 16% (MAPT; fibril formation, ThT fluorescence; 1-fold of tau, at plateau, with: wild-type tau 10 µM, heparin; baseline: untreated).
With CC(=O)N[C@H](C(=O)N[C@@H](CCC(=O)O)C(=O)N[C@@H](C)C(=O)N[C@@H](CC(=O)O)C(=O)COC(=O)c1c(C)cccc1C)C(C)C the kinact/KI was 308000 M⁻¹ s⁻¹ (CASP10; enzyme activity, inhibitor).
C[n+]1cn(C2OC(COP(=O)(O)OP(=O)([O-])C(F)(F)P(=O)(O)OP(=O)(O)OCC3OC(n4cnc5c(=O)[nH]c(N)nc54)C(O)C3O)C(O)C2O)c2nc(N)nc(O)c21 (stereo not drawn) gave a hydrolysis of 13.7 ± 0.2% (DCPS (Homo sapiens, UniProt Q96C86); substrate, HPLC; concentration not given, 15 min).
With O=C(N1CCCC1)n1cc(-c2ccc(-c3ccccc3)cc2)nn1 the activity ratio was 0 (Platelet-activating factor acetylhydrolase 2, cytoplasmic (Mus musculus, UniProt Q8VDG7); enzyme activity, inhibitor, competitive ABPP-SILAC; mouse T-cells; concentration not given, 4 h, treated in situ; baseline: DMSO).
O=C(NO)c1ccc(Cn2c3c(c4cc(Br)ccc42)SC(c2ccccc2)C3)s1 (racemic) gave an interatomic distance of 3.86 Å (Histone deacetylase 8 (Schistosoma mansoni, UniProt A5H660); X-ray crystallography; ligand-Lys20 side chain, C2-CE).
Cc1cn(CC(=O)N(CC(=O)N[C@H]2CCC[C@@H]2N(CC(=O)N[C@H]2COC[C@@H]2N(CC(=O)N[C@H]2COC[C@@H]2N(CC(=O)N[C@H]2COC[C@@H]2N(CC(=O)NCCOCCOCC(N)=O)C(=O)Cn2cnc3c(N)ncnc32)C(=O)Cn2cc(C)c(=O)[nH]c2=O)C(=O)Cn2cnc3c(N)ncnc32)C(=O)Cn2cnc3c(=O)[nH]c(N)nc32)[C@H]2CCC[C@@H]2NC(=O)CN(C(=O)Cn2cnc3c(=O)[nH]c(N)nc32)[C@H]2CCC[C@@H]2NC(=O)CN(C(=O)Cn2cc(C)c(=O)[nH]c2=O)[C@H]2COC[C@@H]2NC(=O)CN(C(=O)Cn2cnc3c(N)ncnc32)[C@H]2COC[C@@H]2NC(=O)CN(C(=O)Cn2cnc3c(=O)[nH]c(N)nc32)[C@H]2COC[C@@H]2N)c(=O)[nH]c1=O has a ΔS of -186 ± 5 cal/mol/K (complementary DNA; duplex formation, UV melting curve fit; PBS; 1 µM).
For CC(=O)N[C@@H](CC(=O)O)C(=O)N[C@@H](Cc1ccc(I)cc1)C(=O)N[C@@H](C)C(=O)N[C@@H](CC(=O)O)C(=O)COC(=O)c1c(C)cccc1C, the kinact/KI was 246000 M⁻¹ s⁻¹ (CASP10; enzyme activity, inhibitor).
CN(C)Cc1cc(-c2coc3cc(O)ccc3c2=O)ccc1F gave a DHEA metabolism of 1.46 (HSD3B1; [3H]-DHEA conversion; LNCaP; 0.1 µM, normalized to protein, unit not given; baseline: vehicle).
For C#CCOC(=O)[C@]1(C)C=C(C(=O)OC(C)(C)C)C(=O)CC1, “normalized kinase activity” read 1.08 and 1.03 and 1.04 (MAPK8 (Homo sapiens, UniProt P45983); enzyme activity, D-SENSOR; 0.06097 µM, single replicate).
CC(C)C1=CC23CCC4C(C)(C(=O)O)CCCC4(C)C2CC1C(C(=O)O)C3C(=O)O (stereo not drawn): “maximum anisotropy change” 45% (Replication protein A 70 kDa DNA-binding subunit, DBD-F (RPA1, Homo sapiens, UniProt P27694); probe displacement, fluorescence anisotropy competition; 14 µM, with: X-rhodamine-labelled probe peptide 300 nM).
With CC(=O)N[C@@H](CC(=O)O)C(=O)N[C@@H](CCC(=O)O)C(=O)N[C@H](C(=O)N[C@@H](CC(=O)O)C(=O)COC(=O)c1c(C)cccc1C)[C@@H](C)OCc1ccccc1 the kinact/KI was 886000 M⁻¹ s⁻¹ (CASP8; enzyme activity, inhibitor).
For CCCCCCCCCCCCC/C=C/C=O, “isoTOP-ABPP competition ratio” read 1 (Bleomycin hydrolase (Homo sapiens, UniProt Q13867); competitive isoTOP-ABPP; proteome, soluble, MDA-MB-231; 100 µM, 60 min, with: iodoacetamide probe; baseline: DMSO over compound-treated, higher = stronger cysteine blockade).
CCN(CC)C(=O)c1ccc(O)c(OC)c1 — result for “bound ligand fraction”: 0.22 (Heat shock protein HSP 90-alpha, N-terminal domain (HSP90AA1, Homo sapiens, UniProt P07900); binding, ligand-observed NMR titration; 9.80 µM, ligand to protein ratio 366).
N=C(N)NCCS(=O)(=O)O: “normalised MST signal” -0.0934 (SLC6A6 (Homo sapiens, UniProt P31641, Y138A); binding, microscale thermophoresis; 62.5 µM, room temperature, with: 50 nM labelled protein; higher = more binding).
CC(=O)N[C@@H](CC(=O)O)C(=O)N[C@@H](Cc1ccccc1)C(=O)N[C@H](C(=O)N[C@@H](CC(=O)O)C(=O)COC(=O)c1c(C)cccc1C)C(C)(C)C has a kobs/[I] of 121000 M⁻¹ s⁻¹ (CASP8; inhibitor; recombinant enzyme).
C=CC(=O)N1CC2(CCN(c3nc(OC4CCN(CCCOC)CC4)nc4c(OCC(F)(F)F)c(-c5c(C)ccc6[nH]ncc56)c(C5CC5)cc34)CC2)C1: “association rate constant” 34500 ± 3500 M⁻¹ s⁻¹ (GTPase KRas, GDP-bound (KRAS, Homo sapiens, UniProt P01116, G13D); binding, surface plasmon resonance).
The inhibition of C[Si](C)(C)C[C@H](CN)CC(=O)O is reported as 91% (Voltage-dependent calcium channel subunit alpha-2/delta-1 (Rattus norvegicus, UniProt P54290); binding, radioligand binding; rat cerebral cortex membranes; 250 µM, with: [3H]gabapentin).
For CC(=O)N[C@@H](CCC(N)=O)C(=O)N[C@@H](CC(C)C)C(=O)N[C@@H](CCCC(=O)O)C(=O)N1CCC[C@H]1C(=O)N[C@@H](CC(=O)O)C(=O)COC(=O)c1c(C)cccc1C, the kinact/KI was 194000 M⁻¹ s⁻¹ (CASP10; enzyme activity, inhibitor).
The fold change of CCN(CC)C(CO)c1cccc2c(C)c(C)oc12 (stereo not drawn) is reported as 0.972 and 0.988 and 0.997 and 0.986 and 0.896 (LPAR1 (Homo sapiens, UniProt Q92633, W271F); G-protein dissociation, agonist, NanoBiT; HEK-293T; 100 pM, W271F mutant; baseline: baseline luminescence).
The Hill slope of C=C[C@H]1CN([C@@H](C)c2cn(CCCNC(=O)CCc3ccc4n3[B-](F)(F)[N+]3=C(c5ccc[nH]5)C=CC3=C4)nn2)C(=O)[C@@H]2CCC[C@H]1N2S(=O)(=O)c1cc(Cl)cc(Cl)c1 is reported as 2 ± 0.2 (FKBP1A (Homo sapiens, UniProt P62942); tracer binding, NanoBRET tracer titration; HEK293T transiently expressing FKBP1A).
The kinact/KI of CC(=O)N[C@@H](CCC(C)C)C(=O)N[C@H](C(=O)N[C@@H](CO)C(=O)N[C@@H](CC(=O)O)C(=O)COC(=O)c1c(C)cccc1C)C(C)(C)C is reported as 42000 M⁻¹ s⁻¹ (CASP8; enzyme activity, inhibitor).
CC1(C)C[C@@H](Nc2cccc(-c3sc(C(=O)O)c(OCC(=O)O)c3Cl)c2)CCN1S(=O)(=O)Cc1cccc(NC(=O)CN2CCC(c3ccc4c(c3)oc(=O)n4C3CCC(=O)NC3=O)CC2)c1 (stereo partly drawn) has a remaining protein of 94.1% and 104% (Tyrosine-protein phosphatase non-receptor type 1 (Mus musculus, UniProt P35821); degrader, Western blot; B16-F10; 0.001 µM).
O=C1c2sc(-c3ccc(N4CCC(F)C4)nc3F)nc2CCN1c1cccnc1 (stereo not drawn) has a specific binding of -1 pM (TAR DNA-binding protein 43, aggregated (TARDBP, Homo sapiens, UniProt Q13148); radioligand binding; control brain sarkosyl-insoluble extract; 1.8 nM).
With O=C(CC1CC2CCC1C2)NCCNC(=O)Cn1c(=O)[nH]c(=O)c2ccccc21 (stereo not drawn) the inhibition was 91% (PARP2 (Homo sapiens, UniProt Q9UGN5); enzyme activity, inhibitor; 0.5 µM).
The DHEA metabolism of COc1ccccc1-c1coc2cc(O)ccc2c1=O is reported as 0.72 (HSD3B1; [3H]-DHEA conversion; LNCaP; 0.1 µM, normalized to protein, unit not given; baseline: vehicle).
Cc1cc(C)c2c(Cn3ccnc3)cc(=O)oc2c1: “inhibition of binding” 25.2 ± 1.94% (ADRA1A (Homo sapiens, UniProt P35348); flow cytometry binding; COS-7; 500 µM, tracer 6.25 nM).
The kinact/KI of CC(=O)N[C@@H](CC(=O)O)C(=O)N[C@H](C(=O)N[C@@H](C)C(=O)N[C@@H](CC(=O)O)C(=O)COC(=O)c1c(C)cccc1C)[C@@H](C)OCc1ccccc1 is reported as 304000 M⁻¹ s⁻¹ (CASP10; enzyme activity, inhibitor).
CC[C@H](C)[C@H](NC(=O)[C@@H](NC(=O)[C@@H](NC(=O)[C@@H](NC(=O)[C@H](CCCCN)NC(=O)[C@H](CCC(=O)O)NC(=O)[C@H](C)N)C(C)C)C(C)C)C(C)C)C(=O)N[C@H](C(=O)N[C@@H](CCCCN)C(N)=O)[C@@H](C)O has an aggregation half-time of 48 ± 18% (MAPT; fibril formation, ThT fluorescence; 0.1-fold of tau, 37 °C, with: wild-type tau 10 µM, heparin; baseline: untreated).
C[N+]1(C)CCCC1 gave a kon of 1.47e+07 M⁻¹ s⁻¹ (Chrnd/Chrna1/Chrne (Mus musculus, UniProt P02716+P04756+P20782, G173K/S470W); single-channel kinetics; K chain side site).
The inhibition of O=C1c2sc(-c3ccc(N4CCC(CO)CC4)nc3F)nc2CCN1c1cccnc1 is reported as -13% (Htr1d (Rattus norvegicus, UniProt P28565); ligand displacement, radioligand; 1 µM).
The remaining activity of CC(C)[C@@H]1NC(=O)[C@H](Cc2ccccc2)NC(=O)CSC[C@@H](C(N)=O)NC(=O)[C@H](CCC(=O)O)NC(=O)[C@H](CO)NC(=O)[C@H](Cc2c[nH]c3cccc(Cl)c23)NC(=O)[C@H](C2CCCCC2)NC(=O)[C@H](C(C)C)NC(=O)[C@H](Cc2ccc(O)cc2)NC(=O)[C@H](CC(=O)O)NC(=O)[C@H](Cc2c[nH]c3ccccc23)NC(=O)[C@H](Cc2ccc(N)nc2)NC(=O)[C@H](Cc2c[nH]c3ccc(Cl)cc23)NC(=O)[C@H](CCC(=O)O)NC1=O is reported as 95.6% (Interleukin-1 receptor-like 2 (IL1RL2, Homo sapiens, UniProt Q9HB29); reporter gene (SEAP), inhibitor, HEK-Blue IL-36R reporter; HEK-Blue IL-36R cells; 0.0017 µM, 6 h, with: IL-36γ 0.03 ng/mL).
For CCCCCC(O)/C=C/C=O (stereo not drawn), “isoTOP-ABPP competition ratio” read 1.8 (Desumoylating isopeptidase 1 (DESI1, Homo sapiens, UniProt Q6ICB0); competitive isoTOP-ABPP; proteome, soluble, MDA-MB-231; 100 µM, with: iodoacetamide probe; baseline: DMSO over compound-treated, higher = stronger cysteine blockade).
With [2H]c1c(NS(C)(=O)=O)c([2H])c2c(C(=O)c3ccc(OCCCN(CCCC)CCCC)cc3)c(CCCC)oc2c1[2H] the KI was 3.63 ± 1.39 µM (Cytochrome P450 2J2 (CYP2J2, Homo sapiens, UniProt P51589); inactivator; with: astemizole substrate).
With N#CN1CC[C@H](C(=O)Nc2nc3c(s2)CN(C(=O)Cn2cc(CNC(=O)CCCC[C@@H]4SC[C@@H]5NC(=O)N[C@@H]54)nn2)CC3)C1 the iBAQ abundance was 5.9e+06 and 1.53e+06 and 3.51e+06 (USP15 (Homo sapiens, UniProt Q9Y4E8); probe binding, affinity probe, neutravidin pull-down LC-MS/MS; HEK293T, cell lysate; 5 µM, 1 h, single replicate, unit not given; higher = more pulled down).

Repeated from above:
With CC(=O)N[C@H](C(=O)N[C@@H](CCC(=O)O)C(=O)N[C@@H](C)C(=O)N[C@@H](CC(=O)O)C(=O)COC(=O)c1c(C)cccc1C)C(C)C the kinact/KI was 308000 M⁻¹ s⁻¹ (CASP10; enzyme activity, inhibitor).
C[n+]1cn(C2OC(COP(=O)(O)OP(=O)([O-])C(F)(F)P(=O)(O)OP(=O)(O)OCC3OC(n4cnc5c(=O)[nH]c(N)nc54)C(O)C3O)C(O)C2O)c2nc(N)nc(O)c21 (stereo not drawn) gave a hydrolysis of 13.7 ± 0.2% (DCPS (Homo sapiens, UniProt Q96C86); substrate, HPLC; concentration not given, 15 min).
